Results gathered from unrelated publications.
Each line is one published result; not all experiments were run side by side. “And” joins repeats or separate records; there may be more than shown. Converted amounts (≈) assume the structure as drawn.
Sequence of UniProt P11388 (whole entry, looked up): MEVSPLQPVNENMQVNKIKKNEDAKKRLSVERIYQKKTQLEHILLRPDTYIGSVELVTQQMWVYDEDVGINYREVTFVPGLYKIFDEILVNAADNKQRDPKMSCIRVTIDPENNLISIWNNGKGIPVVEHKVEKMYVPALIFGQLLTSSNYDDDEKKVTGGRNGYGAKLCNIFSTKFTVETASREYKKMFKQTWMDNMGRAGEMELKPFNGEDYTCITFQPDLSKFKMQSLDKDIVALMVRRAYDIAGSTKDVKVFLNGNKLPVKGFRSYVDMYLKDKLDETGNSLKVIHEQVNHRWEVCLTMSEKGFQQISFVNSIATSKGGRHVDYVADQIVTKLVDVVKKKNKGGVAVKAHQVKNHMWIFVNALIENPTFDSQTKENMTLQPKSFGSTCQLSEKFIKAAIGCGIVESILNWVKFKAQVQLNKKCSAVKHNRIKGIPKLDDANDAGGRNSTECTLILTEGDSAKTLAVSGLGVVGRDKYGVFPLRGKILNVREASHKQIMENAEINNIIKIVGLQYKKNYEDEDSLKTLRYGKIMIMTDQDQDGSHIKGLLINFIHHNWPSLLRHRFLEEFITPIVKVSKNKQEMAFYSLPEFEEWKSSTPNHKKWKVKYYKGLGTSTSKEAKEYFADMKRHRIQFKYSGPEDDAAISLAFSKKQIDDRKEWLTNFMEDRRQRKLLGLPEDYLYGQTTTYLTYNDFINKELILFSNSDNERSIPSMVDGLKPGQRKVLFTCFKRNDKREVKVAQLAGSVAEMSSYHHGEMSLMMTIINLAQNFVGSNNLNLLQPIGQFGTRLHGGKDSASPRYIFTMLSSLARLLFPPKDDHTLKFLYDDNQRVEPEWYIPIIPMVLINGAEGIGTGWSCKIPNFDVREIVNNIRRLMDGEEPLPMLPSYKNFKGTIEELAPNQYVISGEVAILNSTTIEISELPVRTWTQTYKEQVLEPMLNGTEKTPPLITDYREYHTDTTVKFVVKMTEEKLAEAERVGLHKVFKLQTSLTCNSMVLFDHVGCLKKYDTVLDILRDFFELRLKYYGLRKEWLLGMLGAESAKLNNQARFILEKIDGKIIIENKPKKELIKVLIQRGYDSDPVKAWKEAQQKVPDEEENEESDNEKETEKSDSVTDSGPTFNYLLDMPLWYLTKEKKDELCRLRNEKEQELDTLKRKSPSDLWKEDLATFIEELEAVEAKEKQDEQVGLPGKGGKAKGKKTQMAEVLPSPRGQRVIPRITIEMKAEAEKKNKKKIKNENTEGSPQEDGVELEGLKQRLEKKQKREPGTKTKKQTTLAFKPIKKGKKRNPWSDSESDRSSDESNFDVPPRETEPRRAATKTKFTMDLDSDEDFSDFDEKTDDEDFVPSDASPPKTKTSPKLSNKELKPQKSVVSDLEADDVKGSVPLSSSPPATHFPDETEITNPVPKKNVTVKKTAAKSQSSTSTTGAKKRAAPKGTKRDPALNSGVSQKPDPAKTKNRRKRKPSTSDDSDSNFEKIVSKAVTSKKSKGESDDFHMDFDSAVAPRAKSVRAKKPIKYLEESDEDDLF

N#CCC1CCN(c2nc(Nc3ccc(N4CCC(O)CC4)cc3)c3c(=O)[nH]ncc3n2)CC1
serum level change (Olink multiplex, measured: CDCP1; human, serum; 20 mg, day 29, unit not given; reference: placebo): -1.02

CC(=O)CC(c1ccccc1)c1c(O)c2ccccc2oc1=O (stereo not drawn)
subjects with injury, poisoning (human; concentration not given, trial 1): 0%

CC(C)(C(=O)N1CCOc2c(C#N)cncc2C1)C(F)F
subjects with adverse event (measured: injury, poisoning, procedural complications; human; oral, 20 mg twice daily, 14 days, multiple ascending dose): 0%

CC(C)c1nc(N(C)S(C)(=O)=O)nc(-c2ccc(F)cc2)c1/C=C/[C@@H](O)C[C@@H](O)CC(=O)O
subjects with adverse event (measured: injury, poisoning, procedural complications; healthy men; oral, dose not given, 8 days, treatment-emergent, crossover trial): 0%

Cc1cc(-c2nccc3c2ccn3CC(=O)Nc2ccc(-c3cnccn3)cn2)ccn1
injury or procedural TEAEs (healthy human volunteers; oral, 20 mg once daily, 14 days, multiple ascending dose): 22.2%

[H]/N=C(/N)N/C(=N/[H])NCCc1ccccc1
CC50 (primary human hepatocytes; measured: ATP; 4 h): > 100000 nM

COc1ccc([C@@H](O)c2cc(-c3ncnc4cc(N5CCOCC5)ccc34)c(F)cc2Cl)nn1
injury poisoning procedural TEAE (locally advanced rectal cancer patients; 100 mg, added: capecitabine and radiotherapy): 50%

Fc1ccccc1Cc1nc(-c2nc(C(F)(F)F)n[nH]2)cn2ccnc12
subjects with eye TEAEs (healthy human subjects, both sexes; oral, 10 mg, fed): 7.7%

CO/N=C(\C(=O)N[C@@H]1C(=O)N2C(C(=O)O)=C(COC(C)=O)CS[C@H]12)c1csc(N)n1
MIC (Stenotrophomonas maltophilia; broth microdilution; clinical isolate RKI-No 729/15): 16 µg/mL (≈ 35.1 µM)

O=C(Nc1nc2cccc(-c3ccc(CN4CCS(=O)(=O)CC4)cc3)n2n1)C1CC1
patients with adverse event (measured: injury or procedural complication; rheumatoid arthritis patients; oral, 30 mg once daily, 4 weeks, any relatedness): 0%

CCn1c(=O)c(-c2cc(NC(=O)Nc3ccccc3)c(F)cc2Br)cc2cnc(NC)cc21
patients with grade 3+ TEAE (measured: injury and poisoning; severe hepatic impairment; 50 mg single dose): 0%

COC(=O)Nc1c(N)nc(-c2nn(Cc3ccccc3F)c3ncc(F)cc23)nc1N
AUC ratio (healthy male humans, plasma; 5 mg, single dose, fasting, added: omeprazole 40 mg daily; reference: with over without co-treatment): 0.678

C[C@H]1O[C@@H](O[C@H]2[C@@H](O)C[C@H](O[C@H]3[C@@H](O)C[C@H](O[C@H]4CC[C@@]5(C)[C@H](CC[C@@H]6[C@@H]5C[C@@H](O)[C@]5(C)[C@@H](C7=CC(=O)OC7)CC[C@]65O)C4)O[C@@H]3C)O[C@@H]2C)C[C@H](O)[C@@H]1O
subjects with adverse event (measured: injury, poisoning, procedural complications; healthy men; oral, dose not given, 8 days, treatment-emergent, crossover trial): 0%

[Co+2]
relative specific activity (uncharacterized protein (Bacteroides thetaiotaomicron, UniProt Q8A4G9); phosphatase activity, activator, phosphate release; 5 mM, EDTA-treated enzyme, added: substrate 9 mM; reference: activity with Mg2+): 0.55

COc1cc([C@@H]2c3cc4c(cc3[C@@H](O[C@@H]3O[C@@H]5CO[C@@H](C)O[C@H]5[C@H](O)[C@H]3O)[C@H]3COC(=O)[C@H]23)OCO4)cc(OC)c1O
relaxed DNA (TOP2A (Homo sapiens, UniProt P11388); DNA relaxation; 10 µM, replicate 2): 77.5% and 100% and 65.1% and 99.5%

COC(=O)Nc1c(N)nc(-c2nn(Cc3ccccc3F)c3ncc(F)cc23)nc1N
Cmax ratio (healthy men; oral, 10 mg daily, multiple dose, added: sildenafil 50 mg; reference: with over without sildenafil): 0.911

CC1COc2ccccc2N1C(=O)C(Cl)Cl (stereo not drawn)
enantiomeric fraction (carboxylesterase hydrolysis; rhesus monkey, male, liver microsomes; 5 µM, 30 min, pH 7.4, without NADPH): 0.26

C[C@H]1O[C@@H](O[C@H]2[C@@H](O)C[C@H](O[C@H]3[C@@H](O)C[C@H](O[C@H]4CC[C@@]5(C)[C@H](CC[C@@H]6[C@@H]5CC[C@]5(C)[C@@H](C7=CC(=O)OC7)CC[C@]65O)C4)O[C@@H]3C)O[C@@H]2C)C[C@H](O)[C@@H]1O
CC50 (A549; cell growth or viability, resazurin; 72 h): 20 nM

Excerpt of the above:
Fc1ccccc1Cc1nc(-c2nc(C(F)(F)F)n[nH]2)cn2ccnc12
subjects with eye TEAEs (healthy human subjects, both sexes; oral, 10 mg, fed): 7.7%

CO/N=C(\C(=O)N[C@@H]1C(=O)N2C(C(=O)O)=C(COC(C)=O)CS[C@H]12)c1csc(N)n1
MIC (Stenotrophomonas maltophilia; broth microdilution; clinical isolate RKI-No 729/15): 16 µg/mL (≈ 35.1 µM)
